Published values pooled from the literature.
Parts stem from different laboratories: compare values within a part only.

Study 1
Target: Sal-like protein 4, full length isoform B (SALL4, Homo sapiens, UniProt Q9UJQ4-2, residues 1-616)
Technique: universal PBM
Molecule type: double-stranded DNA, one strand shown
Matrix: in vitro
Concentration: not given
Setting: 8-mer, flanks averaged, mean of replicates
Reading: higher = stronger binding
Target sequence (chain): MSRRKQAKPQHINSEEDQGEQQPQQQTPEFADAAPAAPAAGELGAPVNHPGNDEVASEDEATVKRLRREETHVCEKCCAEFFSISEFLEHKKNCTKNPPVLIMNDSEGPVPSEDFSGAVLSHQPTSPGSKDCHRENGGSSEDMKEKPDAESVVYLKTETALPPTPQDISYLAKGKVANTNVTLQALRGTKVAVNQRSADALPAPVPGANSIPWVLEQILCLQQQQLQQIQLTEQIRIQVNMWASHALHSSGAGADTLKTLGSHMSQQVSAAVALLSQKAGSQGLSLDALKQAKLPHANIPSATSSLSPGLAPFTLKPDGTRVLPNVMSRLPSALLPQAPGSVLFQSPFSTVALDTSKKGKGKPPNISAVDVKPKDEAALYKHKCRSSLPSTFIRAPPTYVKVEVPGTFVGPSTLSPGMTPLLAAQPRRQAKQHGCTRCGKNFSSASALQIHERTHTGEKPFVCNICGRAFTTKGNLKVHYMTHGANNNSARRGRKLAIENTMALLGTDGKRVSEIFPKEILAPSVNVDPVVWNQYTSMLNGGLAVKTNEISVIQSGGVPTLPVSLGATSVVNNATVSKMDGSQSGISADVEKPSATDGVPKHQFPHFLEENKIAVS
Strand | E-score
TTGCAAAA | 0.231
CACTCCAA | -0.0417
ACGTATAC | 0.191
GTGGATGA | 0.0292
CAGGATAG | 0.00029
CCCCCCTA | -0.267

Study 2
Target: RNA binding protein fox-1 homolog 2, RRM domain, GST-SBP tag (RBFOX2, Homo sapiens, UniProt O43251-10, residues 100-194)
Technique: RNA Bind-n-Seq
Molecule type: RNA
Matrix: in vitro
Concentration: 365 nM
Setting: natural RNA segment, single round, ends assumed
Reference: no-protein control
Reading: higher = stronger binding
Constant ends, left off below: GGGAGUUCUACAGUCCGACGAUC … UGGAAUUCUCGGGUGCCAA
Construct (chain): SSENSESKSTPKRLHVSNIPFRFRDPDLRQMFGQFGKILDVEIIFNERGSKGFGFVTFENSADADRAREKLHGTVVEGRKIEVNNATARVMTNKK
Strand | RBNS enrichment (R)
UUGUUUAUUAGAUACAUCACUGCUUUAUGAAGCAAGGAAGAUAUACAUGAAAAAAUUUAAAUACAUAUCGCUGACUCCAUUGAAUGGACAUCCUGUAUAAGCACUGAGAA | 0.294
UUCGUCAUCAGUUGUUCUUGAACAUGGUCUUUUAAAAACUAGUCAGAUGAAUUGUUUUCAUCUGAAGCCUGCUAUCUUUUUUAAAAGAUGUGCUAUUUAUUCUUGCACGA | 5.18
AGACAUCGAAAUAAUCACUUGUCAUGCAUUGACUGUAAAUGCAGAUAGAGAAAUAUGUCUUUGAAGCUCCACUUACACAAAAAUAAAACUUGUAUAUCAUGCUCCCUCAA | 0.635
GCCAUCUACUUGGAAUGGGCCCCAGGACUGUGGUAUUUGCCUGGGCCAGGAAAGGAUAAGAAAUCCUGUCAUGUGAAGACAGCUUGAGAGGCUUGAGAAAAGUGGGGCUG | 1.24
GGGCAGGCGGUCCACCUAGACCCACAGCCCCUCGGGAGCACCCCACCUCUGUGUGUGAUGUAGCUUUCUCUCCCUCAGCCUGCAAGGGUCCGAUUUGCCAUCGAAAAAGA | 0.512
AUCUGGGCAUGUCUGCACAAGCAAUGCAACGCUGGGCCACUGCUGCCCGUCUGCCUCCCCGGCACGGCACGGCUCCGCACGCAACCUAAGCGUGCCACCACGGUCUCUUA | 0.725
GAGCAUUUUGUAAGCUGCCCUCACACUAUAUAAUGGACAAUCUUUAUUCUGUUCUUUAGUAUAACAGCAAGUAUAAUUAUGCCGAGUCCUGCCAUCAUAAGUAUGGAGUA | 0.444

Study 3
Target: Interferon regulatory factor 7, full length, phosphomimetic (IRF7, Homo sapiens, UniProt Q92985, residues 1-503, S471D/S472D/S475D/S476D/S477D/S483D/S484D/S487D)
Technique: protein-binding microarray
Molecule type: double-stranded DNA, one strand shown
Matrix: in vitro
Concentration: 2200 nM top
Setting: 60-bp whole probe
With: salmon DNA 0.4 mg/ml
Reference: random background probes
Reading: higher = stronger binding
Construct (chain): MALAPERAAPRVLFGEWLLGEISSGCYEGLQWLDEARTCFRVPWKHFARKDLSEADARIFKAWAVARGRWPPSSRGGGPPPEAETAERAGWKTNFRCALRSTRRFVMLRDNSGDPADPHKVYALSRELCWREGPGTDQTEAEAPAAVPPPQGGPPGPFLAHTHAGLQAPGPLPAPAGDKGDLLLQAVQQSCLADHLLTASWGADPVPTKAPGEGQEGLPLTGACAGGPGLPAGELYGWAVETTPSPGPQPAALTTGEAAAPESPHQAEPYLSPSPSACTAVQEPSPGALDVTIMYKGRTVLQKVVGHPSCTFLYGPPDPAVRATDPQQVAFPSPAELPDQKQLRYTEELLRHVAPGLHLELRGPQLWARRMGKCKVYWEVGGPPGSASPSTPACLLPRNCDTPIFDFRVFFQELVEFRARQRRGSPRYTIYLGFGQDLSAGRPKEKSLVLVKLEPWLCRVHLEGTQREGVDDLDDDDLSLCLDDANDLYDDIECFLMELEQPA
Strand | fitted relative affinity [z-score]
GCCTAGCACTTAGGTTTCCTTCTTCTTTAGTGCTAGGTCTTGATTCGCTTGACGCTGCTG | 2.12
GCCTAGCACGACGGTCTCGTTCTCCTGACGTGCTAGGTCTTGATTCGCTTGACGCTGCTG | 1.41
GCCTAGCACTTAGTTTCCGGTTTCGGTTAGTGCTAGGTCTTGATTCGCTTGACGCTGCTG | 12.7
GCCTAGCACTTAGGTTACGGTCTCGGTTAGTGCTAGGTCTTGATTCGCTTGACGCTGCTG | 0.828

Single results of other studies
Molecule | target | test | test system | conditions | how to read | measurement | result
PhoQ, residues 284 288 289 292 302 303 ALSMDL | PhoP, residues 12 14 15 18 19 IFFTR (Escherichia coli, UniProt P23836) | Sort-seq, item: YFP reporter | E. coli | PhoQ-PhoP variant library, with: 10 µM Mg2+ | reference: high Mg2+ state, higher = stronger signaling | fold induction | 2.28
